Experimental data of several laboratories.
Compare with care: the assays were run in different laboratories. ± gives the spread as reported.
Organism: Influenza A virus

Structure (SMILES)	assay	system	conditions	scale	quantity	value
CC(=N)NCC12C3CCC4C3C3C(CCC31)C42	viral replication	MDCK, H1N1 A/PR/8/34			EC50	> 100 µM
CC1=CCC[C@H](C)[C@@]12CC[C@@H](C(C)(C)O)C2		MDCK, A/Shenzhen/203/2001 (H3N2)		reference: CC50 over IC50	selectivity index	3.5
Cc1cc(=O)[nH]c(=O)n1Cc1cn(C2OC(CO)C(O)C2O)nn1 (stereo not drawn)	cytopathic effect protection	MDCK, A/Puerto Rico/8/34 (H1N1)	concentration not given		antiviral activity	inactive
CC(=O)OC[C@H]1O[C@@H](Oc2cc(C)c3c(c2)C(=O)c2cccc(O)c2C3=O)[C@H](OC(C)=O)[C@@H](OC(C)=O)[C@@H]1OC(C)=O	viral replication, plaque reduction	A/Yuc/2370/09	concentration not given		inhibition	40 to 60%
CCN(CC)CC#CCO[C@H]1CC[C@H](O)[C@@H]2[C@H]1[C@H]1C[C@@H]3[C@@]4(C)CCC[C@@](C)(C(=O)OC)[C@@H]4CC[C@@]23C=C1C(C)C		MDCK, A/Puerto Rico/8/34 (H1N1)		reference: CC50 over IC50	selectivity index	4.31
CCN(CC)C12C3CCC4C3C3C(CCC31)C42	viral replication	MDCK, A/FM/1/47 (H1N1)			EC50	18 ± 11 µM
CC(C)C1=CC2=CC[C@@H]3[C@](C)(CCC[C@@]3(C)C(=O)OCC#CCN3CCCC3)[C@H]2CC1		MDCK, A/Puerto Rico/8/34 (H1N1)		reference: CC50 over IC50	selectivity index	2.99
CC(C)=CCC[C@H](C)c1ccc(C)cc1		MDCK, A/PR/8/34 (H1N1)		reference: CC50 over IC50	selectivity index	7.5
CCN(CC)CC#CCOC(=O)[C@]1(C)CCC[C@]2(C)[C@H]3C[C@H]4C(C(C)C)=C[C@]3(CC[C@H]21)[C@@H]1C(=O)CCC(=O)[C@@H]14		MDCK, A/Puerto Rico/8/34 (H1N1)		reference: CC50 over IC50	selectivity index	5.45
C1CC2C3C4C5CCC4C24CNCC54C13	viral replication	A/PR/8/34 parent allantoic stock	pH 4.9		EC50	1.6 ± 0.6 µM
CC12CCC(CC1=NCCO)C2(C)C (stereo not drawn)	viral replication	MDCK, H3N2			IC50	10.3 µM
CCC1(CC)C2CC3CC(C2)CC1(NC)C3	viral replication	A/Ishikawa/7/82 (H3N2)			EC50	> 100 µM
CC(C)c1ccc2c(c1)CC[C@H]1[C@](C)(C(=O)OCC#CCN3CCCC3)CCC[C@]21C		MDCK, A/Puerto Rico/8/34 (H1N1)		reference: CC50 over IC50	selectivity index	0.66
CC(=N)N1CC23C4C5CC5C5C4C4C2C2CC2C4C53C1 (stereo not drawn)	viral replication	MDCK, H3N2 A/HK/7/87			EC50	> 100 µM
C=CC(=O)Nc1cccc2c1cc(C)n2-c1nc2c(c(NCc3ccccc3)n1)CCCC2		MDCK, A/WS/33 (H1N1)	0.1 µM, 24 h, infected cells		viability	0%

Repeated from above:
Structure (SMILES)	assay	system	conditions	scale	quantity	value
C=CC(=O)Nc1cccc2c1cc(C)n2-c1nc2c(c(NCc3ccccc3)n1)CCCC2		MDCK, A/WS/33 (H1N1)	0.1 µM, 24 h, infected cells		viability	0%
